Experimental data of several laboratories.
Protocols differ between the studies behind these lines. ± gives the spread as reported.
Sigma-2 receptor/TMEM97: Sigma-2 receptor/TMEM97 (Cavia porcellus, UniProt H0V073)
dxs: 1-deoxy-D-xylulose-5-phosphate synthase (dxs, Escherichia coli, UniProt P77488)
UniProt P77488, sequence (whole entry, looked up): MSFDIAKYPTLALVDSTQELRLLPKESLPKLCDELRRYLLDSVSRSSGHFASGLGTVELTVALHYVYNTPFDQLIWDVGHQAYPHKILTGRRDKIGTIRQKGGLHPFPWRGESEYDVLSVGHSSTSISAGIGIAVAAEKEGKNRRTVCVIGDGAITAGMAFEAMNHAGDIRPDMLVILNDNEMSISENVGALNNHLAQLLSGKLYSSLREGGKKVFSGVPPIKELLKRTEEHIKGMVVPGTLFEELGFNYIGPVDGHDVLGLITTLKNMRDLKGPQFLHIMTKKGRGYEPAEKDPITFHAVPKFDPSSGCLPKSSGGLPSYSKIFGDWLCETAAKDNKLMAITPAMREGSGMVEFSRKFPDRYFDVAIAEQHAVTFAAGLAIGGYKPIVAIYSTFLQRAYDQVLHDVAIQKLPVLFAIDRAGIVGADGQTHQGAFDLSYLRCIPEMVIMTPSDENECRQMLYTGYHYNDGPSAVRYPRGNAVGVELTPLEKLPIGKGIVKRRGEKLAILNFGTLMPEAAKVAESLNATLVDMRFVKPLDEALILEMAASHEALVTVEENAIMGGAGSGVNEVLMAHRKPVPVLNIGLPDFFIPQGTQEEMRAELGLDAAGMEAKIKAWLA
UniProt P39051, sequence (whole entry, looked up): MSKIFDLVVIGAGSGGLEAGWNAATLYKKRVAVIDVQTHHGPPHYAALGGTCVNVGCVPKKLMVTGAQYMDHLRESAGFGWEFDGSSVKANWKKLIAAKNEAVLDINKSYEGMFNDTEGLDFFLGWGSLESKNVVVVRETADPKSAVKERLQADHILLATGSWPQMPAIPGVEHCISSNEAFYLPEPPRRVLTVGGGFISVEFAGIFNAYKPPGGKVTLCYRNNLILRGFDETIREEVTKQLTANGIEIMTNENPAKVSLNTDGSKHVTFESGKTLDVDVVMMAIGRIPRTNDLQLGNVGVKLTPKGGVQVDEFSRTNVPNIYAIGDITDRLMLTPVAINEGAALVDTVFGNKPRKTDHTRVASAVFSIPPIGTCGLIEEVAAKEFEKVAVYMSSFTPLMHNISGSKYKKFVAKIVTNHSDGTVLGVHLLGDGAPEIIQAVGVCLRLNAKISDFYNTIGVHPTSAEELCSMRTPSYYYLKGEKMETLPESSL
UniProt P02730, sequence (whole entry, looked up): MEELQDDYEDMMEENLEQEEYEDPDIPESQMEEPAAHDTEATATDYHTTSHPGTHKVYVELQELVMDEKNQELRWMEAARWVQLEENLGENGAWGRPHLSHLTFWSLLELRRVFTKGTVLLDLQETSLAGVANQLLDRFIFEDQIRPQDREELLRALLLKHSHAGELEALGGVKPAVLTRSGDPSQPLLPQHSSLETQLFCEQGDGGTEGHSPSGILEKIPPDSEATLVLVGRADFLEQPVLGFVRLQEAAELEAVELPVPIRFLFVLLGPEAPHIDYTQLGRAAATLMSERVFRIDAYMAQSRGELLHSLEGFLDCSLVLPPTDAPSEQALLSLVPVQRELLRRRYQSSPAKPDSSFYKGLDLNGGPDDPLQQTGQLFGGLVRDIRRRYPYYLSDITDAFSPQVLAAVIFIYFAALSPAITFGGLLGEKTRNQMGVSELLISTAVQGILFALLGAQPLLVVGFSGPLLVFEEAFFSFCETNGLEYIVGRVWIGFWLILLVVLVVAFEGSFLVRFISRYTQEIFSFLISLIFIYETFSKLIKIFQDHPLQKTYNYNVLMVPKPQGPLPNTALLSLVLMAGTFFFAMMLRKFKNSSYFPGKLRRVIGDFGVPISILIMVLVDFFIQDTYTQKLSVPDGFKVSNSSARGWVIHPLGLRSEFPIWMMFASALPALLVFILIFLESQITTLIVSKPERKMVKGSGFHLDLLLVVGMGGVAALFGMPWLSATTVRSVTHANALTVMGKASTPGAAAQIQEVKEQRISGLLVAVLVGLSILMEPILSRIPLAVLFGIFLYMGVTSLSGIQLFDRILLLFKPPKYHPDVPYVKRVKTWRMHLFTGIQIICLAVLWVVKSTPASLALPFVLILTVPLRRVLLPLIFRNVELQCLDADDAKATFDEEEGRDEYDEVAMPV
UniProt P32300, sequence (whole entry, looked up): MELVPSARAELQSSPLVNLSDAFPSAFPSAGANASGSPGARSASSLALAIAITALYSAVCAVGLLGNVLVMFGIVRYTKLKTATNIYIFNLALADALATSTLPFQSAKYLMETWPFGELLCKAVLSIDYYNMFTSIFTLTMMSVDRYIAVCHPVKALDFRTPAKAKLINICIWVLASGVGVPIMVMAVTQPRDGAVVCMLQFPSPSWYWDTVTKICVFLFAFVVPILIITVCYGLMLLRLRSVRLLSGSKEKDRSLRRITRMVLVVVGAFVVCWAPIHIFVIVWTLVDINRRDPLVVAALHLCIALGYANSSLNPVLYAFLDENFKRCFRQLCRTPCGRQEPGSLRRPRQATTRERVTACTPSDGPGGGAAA
UniProt P20272, sequence (whole entry, looked up): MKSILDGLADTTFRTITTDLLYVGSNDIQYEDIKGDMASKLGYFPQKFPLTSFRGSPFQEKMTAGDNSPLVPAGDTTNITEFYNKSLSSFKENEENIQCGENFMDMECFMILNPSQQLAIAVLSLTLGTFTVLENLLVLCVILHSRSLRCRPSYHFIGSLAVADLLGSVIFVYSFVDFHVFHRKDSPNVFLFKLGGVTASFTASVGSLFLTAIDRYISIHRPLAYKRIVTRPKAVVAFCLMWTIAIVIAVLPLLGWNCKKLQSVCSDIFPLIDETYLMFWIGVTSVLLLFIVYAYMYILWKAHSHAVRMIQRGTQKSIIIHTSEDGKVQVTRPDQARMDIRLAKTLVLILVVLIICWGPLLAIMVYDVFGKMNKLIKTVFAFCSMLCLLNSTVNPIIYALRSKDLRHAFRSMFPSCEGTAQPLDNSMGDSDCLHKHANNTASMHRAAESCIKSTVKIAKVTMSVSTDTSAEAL
UniProt P0DMS8, sequence (whole entry, looked up): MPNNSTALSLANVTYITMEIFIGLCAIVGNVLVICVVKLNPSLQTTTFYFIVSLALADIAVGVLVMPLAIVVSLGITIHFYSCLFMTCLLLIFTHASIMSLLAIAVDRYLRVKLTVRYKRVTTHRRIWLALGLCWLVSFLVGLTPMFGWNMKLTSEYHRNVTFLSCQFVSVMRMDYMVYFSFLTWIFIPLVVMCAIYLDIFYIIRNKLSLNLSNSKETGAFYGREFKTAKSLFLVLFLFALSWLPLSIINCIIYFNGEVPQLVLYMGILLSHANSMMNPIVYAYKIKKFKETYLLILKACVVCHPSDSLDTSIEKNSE

Compound	tested on	assay	test system	conditions	quantity	result
CCNC(=O)[C@H]1O[C@@H](n2cnc3c(N)nc(NCCc4ccc(CCC(=O)NCCN)cc4)nc32)[C@H](O)[C@@H]1O	ADORA3 (Homo sapiens, UniProt P0DMS8)	ligand displacement, radioligand	–	cell membranes	Ki	0.02 µM
CC1(C)Oc2cc(C(=O)N3C4CC5CC3CC(C4)O5)cc(O)c2[C@@H]2C[C@@H](O)CC[C@H]21	Cnr1 (Rattus norvegicus, UniProt P20272)	[3H]CP-55,940 displacement	rat brain membranes	with: [3H]CP-55,940	Ki	no binding
CN(CCc1ccc(Cl)c(Cl)c1)CCN1CCCC1	Sigma-2 receptor/TMEM97	binding	guinea pig brain	low-affinity site, two-site fit, with: [3H]DTG 3 nM with (+)-pentazocine 200 nM	Ki	20.5 µM
CN[C@@](C)(C[18F])C(=O)O	A549 tumour model	–	host not given, tumour	1 h, tumour-bearing	tracer uptake	5.1 %ID/g
CCC[C@]1(C(=O)O)C[C@H]1[C@H](N)C(=O)O.Cl	kainate receptor, rat	[3H]kainate displacement	cortical synaptosomes	–	Ki	21 µM
CCCCN1C(=O)C(C=CC=CC=C2C(=O)N(c3ccc(S(=O)(=O)O)cc3)N=C2C)C(=O)N(CCCC)C1=O	SLC4A1 (Homo sapiens, UniProt P02730)	chloride exchange, 36Cl flux, refers to: outward-facing unloaded transporter	–	0 °C, Dixon plot, equilibrium binding	Ki	0.0039 ± 0.0008 µM
CCCN(CCC1(O)CC(NS(=O)(=O)c2ccccc2)C1)[C@H]1CCc2nc(N)sc2C1 (stereo in doubt)	dopamine D2-like receptor, rat	radioligand binding	rat striatal membranes	high-affinity component, with: [3H]spiperone	Ki	0.081 ± 0.011 µM
c1ccc(CCN2CCCCC2)cc1	dopamine receptors, bovine	binding	bovine striatum	with: [3H]spiperone 0.3 nM	Ki	> 10 µM
O=Cc1cc(O)c(O)cc1O	dxs	inhibitor	–	with: 2.0 mM ascorbic acid	Ki	> 75 µM
CC(=O)P(=O)(O)OCc1ccccc1	dxs	uncompetitive inhibitor, IspC-coupled spectrophotometric	–	with: D-GAP	Ki	70 ± 8 µM
CN(C(=O)/C=C/c1ccoc1)[C@@H]1CC[C@@]2(O)[C@H]3Cc4cccc5c4[C@@]2(CCN3CC2CC2)[C@H]1O5	Oprd1 (Mus musculus, UniProt P32300)	binding, radioligand displacement	–	with: [3H]diprenorphine	Ki	1 ± 0.19 µM
c1ccc2sc(C3(N4CCCCC4)CCCCC3)cc2c1	TPR (Trypanosoma brucei brucei, UniProt P39051)	competitive inhibitor, DTNB-coupled	Trypanosoma brucei	pH 7.4, with: trypanothione disulfide	Ki	1 ± 0.08 µM
O=C(OCCN1CCOCC1)C1(c2ccccc2)CCCCC1	Sigma-2 receptor/TMEM97	binding	guinea pig brain	sigma-2 site, high-affinity site, with: 3 nM [3H]DTG, (+)-pentazocine	Ki	32.1 µM

A few entries again:
Compound	tested on	assay	test system	conditions	quantity	result
c1ccc2sc(C3(N4CCCCC4)CCCCC3)cc2c1	TPR (Trypanosoma brucei brucei, UniProt P39051)	competitive inhibitor, DTNB-coupled	Trypanosoma brucei	pH 7.4, with: trypanothione disulfide	Ki	1 ± 0.08 µM
O=C(OCCN1CCOCC1)C1(c2ccccc2)CCCCC1	Sigma-2 receptor/TMEM97	binding	guinea pig brain	sigma-2 site, high-affinity site, with: 3 nM [3H]DTG, (+)-pentazocine	Ki	32.1 µM
